Experimental data from different studies.
Each numbered part is a random draw from the data of one study; scales do not carry over between parts. “And” joins repeats or separate records; there may be more than shown.
UniProt P15056, sequence (whole entry, looked up): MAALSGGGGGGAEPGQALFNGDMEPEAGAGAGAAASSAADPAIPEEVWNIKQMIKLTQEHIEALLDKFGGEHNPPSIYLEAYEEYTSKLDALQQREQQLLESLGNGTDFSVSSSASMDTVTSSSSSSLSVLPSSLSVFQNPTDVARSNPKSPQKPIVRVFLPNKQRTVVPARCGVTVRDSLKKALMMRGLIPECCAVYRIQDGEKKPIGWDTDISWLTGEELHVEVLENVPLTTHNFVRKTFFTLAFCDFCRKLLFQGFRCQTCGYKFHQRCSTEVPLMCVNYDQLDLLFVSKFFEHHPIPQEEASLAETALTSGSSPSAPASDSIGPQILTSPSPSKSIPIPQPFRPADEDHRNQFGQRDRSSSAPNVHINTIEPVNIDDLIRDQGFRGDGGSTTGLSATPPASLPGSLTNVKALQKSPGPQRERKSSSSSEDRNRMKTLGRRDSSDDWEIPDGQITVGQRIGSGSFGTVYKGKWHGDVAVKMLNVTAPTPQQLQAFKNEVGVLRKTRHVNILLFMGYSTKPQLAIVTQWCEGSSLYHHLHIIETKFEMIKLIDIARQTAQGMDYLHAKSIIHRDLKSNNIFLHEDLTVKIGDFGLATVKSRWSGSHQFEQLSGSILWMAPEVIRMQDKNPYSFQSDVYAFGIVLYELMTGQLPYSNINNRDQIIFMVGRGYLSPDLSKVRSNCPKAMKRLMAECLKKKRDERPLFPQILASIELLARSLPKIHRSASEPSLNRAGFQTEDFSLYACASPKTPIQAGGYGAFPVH
UniProt Q14289, sequence (whole entry, looked up): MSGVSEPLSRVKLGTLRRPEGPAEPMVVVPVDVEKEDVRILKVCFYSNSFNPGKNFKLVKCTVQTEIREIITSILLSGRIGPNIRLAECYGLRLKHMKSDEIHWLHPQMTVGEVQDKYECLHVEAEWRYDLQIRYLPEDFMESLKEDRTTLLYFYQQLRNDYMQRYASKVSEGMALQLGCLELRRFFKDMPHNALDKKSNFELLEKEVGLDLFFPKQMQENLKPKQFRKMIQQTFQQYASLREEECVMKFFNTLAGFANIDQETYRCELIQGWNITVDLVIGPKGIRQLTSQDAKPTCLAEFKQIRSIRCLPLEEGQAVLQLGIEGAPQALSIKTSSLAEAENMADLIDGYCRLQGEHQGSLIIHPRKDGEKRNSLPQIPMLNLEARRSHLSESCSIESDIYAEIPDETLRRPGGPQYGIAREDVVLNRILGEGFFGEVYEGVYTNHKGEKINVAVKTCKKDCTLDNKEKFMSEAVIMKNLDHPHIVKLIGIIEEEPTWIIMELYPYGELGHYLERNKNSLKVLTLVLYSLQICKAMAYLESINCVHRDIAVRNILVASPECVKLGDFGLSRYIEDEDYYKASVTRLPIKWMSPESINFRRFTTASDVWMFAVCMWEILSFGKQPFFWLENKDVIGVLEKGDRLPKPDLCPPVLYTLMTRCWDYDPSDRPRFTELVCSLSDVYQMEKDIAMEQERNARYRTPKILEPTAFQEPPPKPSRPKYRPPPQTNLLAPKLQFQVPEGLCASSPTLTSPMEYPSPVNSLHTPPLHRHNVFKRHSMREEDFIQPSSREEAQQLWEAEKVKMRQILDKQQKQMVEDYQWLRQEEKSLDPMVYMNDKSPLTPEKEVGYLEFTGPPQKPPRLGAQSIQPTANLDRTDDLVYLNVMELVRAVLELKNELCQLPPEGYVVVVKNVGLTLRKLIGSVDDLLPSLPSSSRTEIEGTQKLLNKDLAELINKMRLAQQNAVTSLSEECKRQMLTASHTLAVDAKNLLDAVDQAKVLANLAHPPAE
UniProt P48730, sequence (whole entry, looked up): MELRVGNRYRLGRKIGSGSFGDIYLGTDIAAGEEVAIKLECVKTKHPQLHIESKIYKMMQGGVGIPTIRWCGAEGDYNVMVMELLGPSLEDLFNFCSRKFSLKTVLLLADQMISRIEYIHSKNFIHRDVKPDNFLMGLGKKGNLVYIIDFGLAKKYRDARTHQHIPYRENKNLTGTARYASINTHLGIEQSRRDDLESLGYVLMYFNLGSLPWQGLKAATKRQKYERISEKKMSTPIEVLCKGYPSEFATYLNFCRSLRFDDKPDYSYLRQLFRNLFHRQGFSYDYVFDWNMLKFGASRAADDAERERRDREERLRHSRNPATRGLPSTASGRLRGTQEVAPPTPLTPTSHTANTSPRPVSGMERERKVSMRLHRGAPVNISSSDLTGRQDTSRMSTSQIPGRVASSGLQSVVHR

Block 1 — effect on: enzyme activity; action: inhibitor; concentration: 77 µM; baseline: untreated; measurement: remaining activity
Target: DNA polymerase theta, ATPase domain (POLQ, Homo sapiens, UniProt O75417)
UniProt O75417, sequence (whole entry, unmodified, looked up): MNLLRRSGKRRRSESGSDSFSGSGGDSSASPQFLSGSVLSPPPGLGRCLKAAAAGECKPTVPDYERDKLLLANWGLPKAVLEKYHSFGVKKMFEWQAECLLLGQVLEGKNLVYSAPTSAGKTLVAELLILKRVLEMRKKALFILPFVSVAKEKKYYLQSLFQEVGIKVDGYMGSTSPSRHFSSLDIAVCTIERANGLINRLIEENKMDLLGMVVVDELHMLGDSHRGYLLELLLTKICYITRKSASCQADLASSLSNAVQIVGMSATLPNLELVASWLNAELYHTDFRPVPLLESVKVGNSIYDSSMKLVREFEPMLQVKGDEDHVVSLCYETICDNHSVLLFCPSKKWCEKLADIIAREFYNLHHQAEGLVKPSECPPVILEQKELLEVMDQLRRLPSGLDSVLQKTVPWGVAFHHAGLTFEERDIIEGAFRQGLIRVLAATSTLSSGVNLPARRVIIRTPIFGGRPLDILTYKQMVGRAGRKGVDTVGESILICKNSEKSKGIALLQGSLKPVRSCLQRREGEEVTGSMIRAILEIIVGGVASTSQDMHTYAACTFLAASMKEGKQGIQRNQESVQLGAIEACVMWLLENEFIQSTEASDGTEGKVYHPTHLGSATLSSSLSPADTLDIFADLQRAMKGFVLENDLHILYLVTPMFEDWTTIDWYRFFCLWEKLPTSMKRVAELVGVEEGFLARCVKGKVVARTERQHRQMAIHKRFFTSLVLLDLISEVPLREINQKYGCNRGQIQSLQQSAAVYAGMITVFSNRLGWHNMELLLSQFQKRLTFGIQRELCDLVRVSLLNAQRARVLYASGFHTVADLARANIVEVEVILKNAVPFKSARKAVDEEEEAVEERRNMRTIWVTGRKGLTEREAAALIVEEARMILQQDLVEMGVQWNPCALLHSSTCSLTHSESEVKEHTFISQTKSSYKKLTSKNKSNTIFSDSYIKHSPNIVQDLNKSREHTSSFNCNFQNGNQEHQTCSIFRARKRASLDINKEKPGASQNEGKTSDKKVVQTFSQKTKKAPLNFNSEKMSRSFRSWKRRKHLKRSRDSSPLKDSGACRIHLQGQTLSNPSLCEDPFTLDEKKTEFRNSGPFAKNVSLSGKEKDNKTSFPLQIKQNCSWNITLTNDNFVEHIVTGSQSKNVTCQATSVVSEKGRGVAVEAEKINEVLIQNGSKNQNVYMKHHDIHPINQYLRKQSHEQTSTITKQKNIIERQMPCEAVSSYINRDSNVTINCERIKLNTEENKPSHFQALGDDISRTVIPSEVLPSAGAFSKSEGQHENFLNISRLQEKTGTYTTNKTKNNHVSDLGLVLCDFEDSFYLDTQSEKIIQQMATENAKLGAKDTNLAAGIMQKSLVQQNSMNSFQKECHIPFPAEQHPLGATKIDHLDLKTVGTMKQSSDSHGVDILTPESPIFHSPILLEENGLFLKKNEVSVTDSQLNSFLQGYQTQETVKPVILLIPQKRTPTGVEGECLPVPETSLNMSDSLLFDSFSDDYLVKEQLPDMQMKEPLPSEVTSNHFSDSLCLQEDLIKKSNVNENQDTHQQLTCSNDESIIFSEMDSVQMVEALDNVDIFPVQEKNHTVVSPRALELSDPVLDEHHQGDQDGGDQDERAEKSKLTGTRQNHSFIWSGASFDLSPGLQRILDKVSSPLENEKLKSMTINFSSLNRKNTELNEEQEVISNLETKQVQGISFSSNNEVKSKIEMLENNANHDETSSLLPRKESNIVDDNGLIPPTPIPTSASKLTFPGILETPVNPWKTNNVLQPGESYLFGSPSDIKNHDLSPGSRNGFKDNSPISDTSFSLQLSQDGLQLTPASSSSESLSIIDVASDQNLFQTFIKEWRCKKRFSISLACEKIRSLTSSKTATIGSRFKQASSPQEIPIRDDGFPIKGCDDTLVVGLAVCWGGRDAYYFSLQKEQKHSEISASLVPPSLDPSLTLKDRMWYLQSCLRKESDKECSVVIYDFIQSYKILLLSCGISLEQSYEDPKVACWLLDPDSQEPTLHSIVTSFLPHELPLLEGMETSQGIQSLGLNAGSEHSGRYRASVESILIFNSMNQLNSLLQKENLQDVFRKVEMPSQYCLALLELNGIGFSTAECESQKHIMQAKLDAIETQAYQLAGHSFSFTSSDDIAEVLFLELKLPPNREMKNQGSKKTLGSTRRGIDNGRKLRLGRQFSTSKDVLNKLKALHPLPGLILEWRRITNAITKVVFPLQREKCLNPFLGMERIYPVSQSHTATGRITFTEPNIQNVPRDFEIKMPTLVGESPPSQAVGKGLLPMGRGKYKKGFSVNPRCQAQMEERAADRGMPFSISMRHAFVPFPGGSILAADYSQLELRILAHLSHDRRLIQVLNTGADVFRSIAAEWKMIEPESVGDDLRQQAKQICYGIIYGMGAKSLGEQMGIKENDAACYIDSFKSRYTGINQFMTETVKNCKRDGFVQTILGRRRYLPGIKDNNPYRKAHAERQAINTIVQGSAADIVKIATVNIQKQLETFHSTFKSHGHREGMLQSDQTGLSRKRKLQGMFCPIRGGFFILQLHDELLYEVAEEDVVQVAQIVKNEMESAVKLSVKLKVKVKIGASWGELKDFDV
SMILES = CNC(=C[N+](=O)[O-])NCCSCc1csc(CN(C)C)n1; value = 96.1% and 100%
SMILES = NC[C@H]1O[C@H](O[C@H]2[C@H](O)[C@@H](O[C@H]3O[C@H](CO)[C@@H](O)[C@H](N)[C@H]3O)[C@H](N)C[C@@H]2N)[C@H](O)[C@@H](O)[C@@H]1O; value = 93.7%
SMILES = Cc1cc(C(C)(C)CC(C)(C)C)ccc1OCCOCC[N+](C)(C)Cc1ccccc1; value = 106%
SMILES = C[C@H](Cc1cc2c(c(C(N)=O)c1)N(CCCO)CC2)NCCOc1ccccc1OCC(F)(F)F; value = 92.4%
SMILES = COC(=O)[C@H](NC(=O)c1cc(-c2ccccc2)nc2ccccc12)c1ccccc1; value = 102%
SMILES = Cc1cc(C#N)cc(C)c1Oc1nc(Nc2ccc(C#N)cc2)nc(N)c1Br; value = 79%
SMILES = O=C(O)CSCC(=O)NC1CCSC1=O (stereo not drawn); value = 99.4%
SMILES = Nc1ccc2c3c(cccc13)C(=O)NC2=O; value = 89.2%
SMILES = COC1=C(OC)C(=O)C(CCCCCCCCCCO)=C(C)C1=O; value = 98.8%

Block 2 — Compound: N#CC(=C(N)Sc1ccc(N)cc1)c1ccccc1C(F)(F)F; effect on: enzyme activity; action: inhibitor; concentration: 0.5 µM; baseline: control; measurement: remaining activity
target = TEC (Homo sapiens, UniProt P42680); value = 109%
target = TYRO3 (Homo sapiens, UniProt Q06418); value = 110%
target = Cyclin-dependent kinase 2, with cyclin E (CDK2, Homo sapiens, UniProt P24941); value = 95.4%
target = PAK6 (Homo sapiens, UniProt Q9NQU5); value = 107%
target = EPHA2 (Homo sapiens, UniProt P29317); value = 104%
target = JAK1 (Homo sapiens, UniProt P23458); value = 106%
target = MAP3K20 (Homo sapiens, UniProt Q9NYL2); value = 105%
target = PRKCQ (Homo sapiens, UniProt Q04759); value = 104%
target = CSNK1D (Homo sapiens, UniProt P48730); value = 106%
target = SRPK1 (Homo sapiens, UniProt Q96SB4); value = 96.5%
target = CSNK1E (Homo sapiens, UniProt P49674); value = 95.8%
target = PRKCZ (Homo sapiens, UniProt Q05513); value = 106%
target = CAMKK1 (Homo sapiens, UniProt Q8N5S9); value = 117%
target = SIK2 (Homo sapiens, UniProt Q9H0K1); value = 101%
target = EPHA6 (Homo sapiens, UniProt Q9UF33); value = 92.3%
target = RPS6KA3 (Homo sapiens, UniProt P51812); value = 100%
target = FLT1 (Homo sapiens, UniProt P17948); value = 85.4%
target = CAMK1 (Homo sapiens, UniProt Q14012); value = 91.6%
target = PAK1 (Homo sapiens, UniProt Q13153); value = 94.3%
target = CLK2 (Homo sapiens, UniProt P49760); value = 100%
target = IGF1R (Homo sapiens, UniProt P08069); value = 97.4%
target = SGK2 (Homo sapiens, UniProt Q9HBY8); value = 99%

Block 3 — cell line: HaCaT; concentration: 100 µM; time: 60 h; measurement: viability
Compound = CC(=O)OCC(=O)[C@@]12OC3(CCCC3)O[C@@H]1C[C@H]1[C@@H]3CCC4=CC(=O)C=C[C@]4(C)[C@@]3(F)[C@@H](O)C[C@@]12C; value = 45.2%
Compound = CCCc1cc(=O)[nH]c(=S)[nH]1; value = 144%
Compound = C[N+]1(C)[C@@H]2C[C@@H](OC(=O)C(O)(c3cccs3)c3cccs3)C[C@H]1[C@@H]1O[C@@H]12; value = 144%
Compound = O=C(O)C1=CO[C@@H](O[C@@H]2O[C@H](CO)[C@@H](O)[C@H](O)[C@H]2O)[C@@H]2C(CO)=CC[C@H]12; value = 136%
Compound = c1ccc2c(CC3=NCCN3)cccc2c1; value = 111%
Compound = COc1ccccc1OCC(O)CO (stereo not drawn); value = 145%
Compound = CC1=C(C(=O)O)N2C(=O)[C@@H](NC(=O)[C@H](N)C3=CCC=CC3)[C@H]2SC1; value = 149%

Block 4 — effect on: cell-free assay; technique: competition with immobilised ligand; concentration: 1 µM; measurement: remaining binding
Structure (SMILES): O=C(O)c1cc(-c2ccc(C3CCNCC3)cc2)c2ccc(-c3ccc(C(F)(F)F)cc3)cc2c1
target = PTK2B (Homo sapiens, UniProt Q14289); value = 100%
target = LIM domain kinase 1 (LIMK1, Homo sapiens, UniProt P53667); value = 100%
target = CDK11B (Homo sapiens, UniProt P21127); value = 100%
target = TEK (Homo sapiens, UniProt Q02763); value = 100%
target = BRAF (Homo sapiens, UniProt P15056); value = 100%
target = MAP3K7 (Homo sapiens, UniProt O43318); value = 100%
target = FES (Homo sapiens, UniProt P07332); value = 100%
